Assay results of several laboratories.
Each numbered part is a random draw from the data of one study; scales do not carry over between parts. Positions count from the first letter of the parent shown.

Study 1
Target: CCND3, cyclin fold, Cln2 fusion (human)
Technique: yeast growth competition, sequencing
Medium: yeast
Setting: weak parent motif
Baseline: not given
Reading: higher = stronger binding
Quantity: normalised enrichment score
Starting sequence: HIRA docking peptide (human); SLSKRKLELEVET
SLSKRKLELEAET [V11A]: 0.0419
SLSKRKAELEVET [L7A]: -0.035
SLSKRKLELEVAT [E12A]: 0.0261
SLSKAKLELEVET [R5A]: 0.0385
SLSKRKLEFEVET [L9F]: -0.224
SLSARKLELEVET [K4A]: 0.0515
SLSKKKLEFEVET [R5K L9F]: -0.0454
SLSKRKLALEVET [E8A]: 0.124
SASKRKLELEVET [L2A]: 0.109
SLSKAKAELEVET [R5A L7A]: 0.123

Study 2
Target: ABI1, truncated, D143A, DHFR fusion (Arabidopsis thaliana)
Technique: DHFR PCA, deep sequencing
Medium: yeast
Setting: methotrexate growth selection, single substitutions
Together with: (+)-ABA 710 µM
Baseline: wild-type fitted maximum
Reading: higher = stronger binding
Quantity: relative binding score
Starting sequence: PYL1, truncated, DHFR fusion (Arabidopsis thaliana); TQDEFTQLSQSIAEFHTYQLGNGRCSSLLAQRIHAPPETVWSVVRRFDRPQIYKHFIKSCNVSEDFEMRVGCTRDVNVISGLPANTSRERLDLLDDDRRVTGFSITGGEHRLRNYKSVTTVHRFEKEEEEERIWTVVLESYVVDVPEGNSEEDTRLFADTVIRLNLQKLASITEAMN
D96C: 82.5%
T86P: -0.662%
G23W: 87.7%
G108S: 49.9%
E129P: 110%
T101C: 107%
I162Y: -9.97%
R163S: 91%
A13E: 97.2%
S80D: 56.8%
N114S: 92.9%
L112D: 4.89%
V142K: 88.1%
G102F: -3.88%

Study 3
Target: TAR DNA-binding protein 43, full length, His tag (TARDBP, Homo sapiens, UniProt Q13148, residues 1-414)
Technique: RNA Bind-n-Seq
Form: RNA
Medium: in vitro
Tested at: 20 nM
Setting: 6-mer, flanks averaged, single round
Together with: 150 mM KCl
Baseline: input library
Reading: higher = stronger binding
Quantity: 6-mer enrichment (R)
CCGAAC: 0.667
UGGAAC: 0.851
UAUCGU: 0.6
CUGGGU: 1.68
GCUCUG: 0.794
ACGGCU: 0.785
GAGAGC: 1.41
UCUGGU: 0.74
UUCUCU: 0.556
CAAUAU: 0.624
GAGCAC: 0.919
CAACUU: 0.589
GUGUUU: 1.01
UGGAAU: 0.829
CAUAGG: 0.995

Study 4
Target: RNA binding protein fox-1 homolog 2, RRM domain, GST-SBP tag (RBFOX2, Homo sapiens, UniProt O43251-10, residues 100-194)
Technique: RNA Bind-n-Seq
Form: RNA
Medium: in vitro
Tested at: 365 nM
Setting: natural RNA segment, single round, ends assumed
Baseline: no-protein control
Reading: higher = stronger binding
Quantity: RBNS enrichment (R)
Shared flanks, not repeated: GGGAGUUCUACAGUCCGACGAUC … UGGAAUUCUCGGGUGCCAA
Target sequence (chain): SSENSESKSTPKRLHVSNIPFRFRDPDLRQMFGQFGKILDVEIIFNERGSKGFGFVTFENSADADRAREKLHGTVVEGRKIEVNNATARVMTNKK
UGUUUGCUUUUGAUGUAUCCCUUUGUGAAAUUAGCACUUUUGGGGCCAAUGGAGAAAUGCAGCAUUCACUCUCCCUGUCUUUUCCCCUUCCCUCAGCAGAAACGUGUUUA: 0.474
UUCUUUUUCUGCAAUGAAGACAGAAAGAAGGCUCUGGGGUGAUGCGUUUGGCAUUUGUGUUGAGCUUAGGGGAGCAUUGGCAUGGAGAAACUCCACGCUGGCGAAGUCCC: 0.641
AUGCCCCACCCCAGCUCUCUUUCCCUUCUGGGUGUCUUUGCUGGGAGGGGGCUGUGUUGUGAGCCCUCCCGGUUCUCACCUCGCCUGGCACUUAACCACACCCUGGUUUU: 0.279
GAAGGCAGCUUCCUAUAUGCAGCGUGUGCUUUCUUAUUCUUAUUUUUAAUAUAUGACAGUUAUUUGAGAAGCCAUUUCUACUUUGAAGUCAUUAUCGAUGAAAGUGAUGU: 0.459
UGUGCAGCUUUGCAUAUACACACAUGCAUACAUGAGCCUCCACACAAGCACUUGCACACAUGUGGACUCCUAACCAUGCUAACCUCACUGGCUGGGAAGGUGGGGACCCC: 0.399
GCAGUUGUGCACAGAUGUCUUUCCUUUACCGUUGGCCUUUCUGUCUGCCUCUCCUUCCUCUCUGCAGCCCAAAUGGAAAACAAUUAUUUACUCCAUUGGAGGGAAAGGAA: 0.276
AAAAUGAAAAAAAAGUUUACAAAUUUAAGUUGACAAUGAAAUGUGAAGUUGGUCCUAGUUUACAUCUUAGAGGAAUGUAUAUGUAUGUUUUACAUGCCUAAAUAUCUGCA: 13.8
CAGUCAUUUACCCAACUUACUCUAGAAAUGUCCACAGCUAAGGAAGGCUCCUGAGCCAGUCAGGCGGAGUUCAAGUGAUAUCUUGGGACAGUGACCAUGGUCUGCAUUAC: 0.316

Study 5
Target: CEP164, C-terminal peptide (human)
Technique: DHFR complementation, deep sequencing
Medium: yeast
Setting: single substitutions, model-inferred values
Baseline: wild type
Reading: higher = weaker binding
Quantity: binding free energy change
Starting sequence: PDZK1, PDZ domain 2 (human); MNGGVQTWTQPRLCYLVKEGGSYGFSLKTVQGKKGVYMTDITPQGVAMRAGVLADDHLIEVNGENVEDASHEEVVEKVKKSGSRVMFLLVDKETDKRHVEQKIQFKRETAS; partner HNRVKVYRF
F25S: 0.782 kcal/mol
A69R: -0.142 kcal/mol
N65L: 0.293 kcal/mol
E67C: 0.128 kcal/mol
K33D: 0.0809 kcal/mol
V78T: 1.14 kcal/mol
D91L: 0.288 kcal/mol
H71T: 0.304 kcal/mol
N2E: -0.166 kcal/mol
V17H: 0.0785 kcal/mol
A50D: 1.32 kcal/mol
T7H: 0.0184 kcal/mol
D55S: 0.723 kcal/mol
G35Y: 0.74 kcal/mol
E73A: 0.0434 kcal/mol
H71V: 0.063 kcal/mol
V90R: -0.297 kcal/mol
M48N: -0.0747 kcal/mol
H57S: 0.069 kcal/mol
V61P: 0.844 kcal/mol
L53M: -0.0947 kcal/mol

Repeated from above (study 1):
SLSKRKLEFEVET [L9F]: -0.224
SLSARKLELEVET [K4A]: 0.0515
SLSKKKLEFEVET [R5K L9F]: -0.0454
SLSKRKLALEVET [E8A]: 0.124
SASKRKLELEVET [L2A]: 0.109
